Experimental data gathered from unrelated publications.
Compare with care: the assays were run in different laboratories. Values joined by “and” are separate records of one study, mostly repeats; a detail may differ.
CSNK1A1/CRBN: Cereblon/Casein kinase I alpha (CSNK1A1/CRBN, Homo sapiens, UniProt P48729+Q96SW2)
UniProt P35030, sequence (whole entry, looked up): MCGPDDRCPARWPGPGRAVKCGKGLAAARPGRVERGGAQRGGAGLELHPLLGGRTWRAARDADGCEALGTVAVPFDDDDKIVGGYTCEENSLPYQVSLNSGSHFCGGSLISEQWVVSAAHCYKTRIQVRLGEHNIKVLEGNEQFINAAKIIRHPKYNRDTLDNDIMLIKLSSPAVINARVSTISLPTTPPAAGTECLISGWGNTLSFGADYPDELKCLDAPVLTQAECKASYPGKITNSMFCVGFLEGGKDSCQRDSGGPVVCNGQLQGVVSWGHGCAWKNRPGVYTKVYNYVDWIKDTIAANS
UniProt Q96SW2, sequence (whole entry, looked up): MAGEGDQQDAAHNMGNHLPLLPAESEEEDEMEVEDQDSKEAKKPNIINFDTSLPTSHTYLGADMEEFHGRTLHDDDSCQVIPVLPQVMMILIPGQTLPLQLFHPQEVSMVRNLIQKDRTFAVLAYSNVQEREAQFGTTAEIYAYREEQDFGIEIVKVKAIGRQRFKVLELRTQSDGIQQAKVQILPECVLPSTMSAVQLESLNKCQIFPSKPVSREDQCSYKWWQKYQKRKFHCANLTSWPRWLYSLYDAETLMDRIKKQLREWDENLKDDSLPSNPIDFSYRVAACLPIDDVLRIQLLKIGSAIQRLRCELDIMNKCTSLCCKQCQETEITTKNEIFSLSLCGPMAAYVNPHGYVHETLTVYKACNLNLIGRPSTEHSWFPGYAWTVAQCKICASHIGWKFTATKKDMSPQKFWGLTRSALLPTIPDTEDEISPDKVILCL
UniProt P48729, sequence (whole entry, looked up): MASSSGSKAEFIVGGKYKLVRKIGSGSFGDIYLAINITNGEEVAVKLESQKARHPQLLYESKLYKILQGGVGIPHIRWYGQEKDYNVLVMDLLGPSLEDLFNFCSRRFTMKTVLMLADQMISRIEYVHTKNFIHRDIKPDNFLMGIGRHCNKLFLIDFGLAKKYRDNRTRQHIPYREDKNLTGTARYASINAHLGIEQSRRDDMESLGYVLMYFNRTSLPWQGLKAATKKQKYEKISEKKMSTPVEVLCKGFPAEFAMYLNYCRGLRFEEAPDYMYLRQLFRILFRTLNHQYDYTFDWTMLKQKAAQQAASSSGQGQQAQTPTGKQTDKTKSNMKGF
UniProt P51817, sequence (whole entry, looked up): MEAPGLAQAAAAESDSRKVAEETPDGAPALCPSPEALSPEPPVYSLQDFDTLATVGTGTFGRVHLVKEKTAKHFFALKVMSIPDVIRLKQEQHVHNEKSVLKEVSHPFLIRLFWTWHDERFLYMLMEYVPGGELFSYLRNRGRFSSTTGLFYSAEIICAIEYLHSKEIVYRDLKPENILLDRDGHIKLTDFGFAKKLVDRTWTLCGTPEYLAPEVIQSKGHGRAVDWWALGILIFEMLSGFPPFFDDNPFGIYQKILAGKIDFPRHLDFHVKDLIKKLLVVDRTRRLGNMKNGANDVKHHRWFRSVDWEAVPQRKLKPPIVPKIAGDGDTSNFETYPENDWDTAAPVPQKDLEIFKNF
UniProt Q13526, sequence (whole entry, looked up): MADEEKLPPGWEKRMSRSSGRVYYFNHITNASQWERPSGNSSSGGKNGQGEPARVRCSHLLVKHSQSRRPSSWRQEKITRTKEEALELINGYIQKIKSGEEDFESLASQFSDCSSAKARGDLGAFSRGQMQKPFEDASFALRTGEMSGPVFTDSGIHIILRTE
UniProt P0AC13, sequence (whole entry, looked up): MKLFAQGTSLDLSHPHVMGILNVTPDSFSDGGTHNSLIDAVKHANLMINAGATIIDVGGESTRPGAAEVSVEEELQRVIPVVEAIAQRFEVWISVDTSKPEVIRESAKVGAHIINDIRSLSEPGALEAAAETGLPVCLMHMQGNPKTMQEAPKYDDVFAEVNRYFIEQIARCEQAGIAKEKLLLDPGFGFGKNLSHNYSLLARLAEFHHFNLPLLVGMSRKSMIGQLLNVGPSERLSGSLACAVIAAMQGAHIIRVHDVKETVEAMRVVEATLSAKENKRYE

| Structure (SMILES) | target | test | test system | setting | measurement | value |
| --- | --- | --- | --- | --- | --- | --- |
| CCOC(=O)Cc1n[nH]c2nc(N)[nH]c(=O)c2c1=O | folP (Bacteria, UniProt P0AC13) | binding, SPR | – | – | Kd | 32.1 nM |
| Cc1c[nH]c2nccc(-c3ccc(C(=O)N[C@@H]4c5c(F)cc(C(F)F)cc5C[C@@H]4O)cn3)c12 | PRKACB (Homo sapiens, UniProt P22694) | binding, competition with immobilised ligand | – | – | Kd | 6.3 nM |
| CCc1c(C(=O)Nc2ccc3c(c2)CN(C2CCC(=O)NC2=O)C3=O)[nH]c2c(CN)cccc12 (stereo not drawn) | CSNK1A1/CRBN | protein level, degrader, luciferase | – | – | DC50 | 17.8 nM |
| NC(=O)[C@H](Cc1c[nH]c2ccc(F)cc12)NC(=O)[C@@H]1CCCCN1C(=O)[C@@H]1Cc2c([nH]c3ccccc23)CN1C(=O)CCl | PIN1 (Homo sapiens, UniProt Q13526) | protein degradation, degrader | human cancer cell lines | 24 h | DC50 | ~500 nM |
| Cc1nc(-c2c[nH]c(C(=O)Nc3ncccc3O)c2)cs1 | Trypsin-3 (Homo sapiens, UniProt P35030) | enzyme activity, inhibitor, mixed model kinetics | – | together with: substrate Z-GPR-pNA | Ki | 58900 nM and 58400 nM and 31300 nM and 38900 nM |
| CCc1nc2cc3ccccc3cc2cc1C(=O)N[C@@H](CCCCN)C(=O)N[C@@H](C/C=C/C[C@H](NC(=O)[C@H](CCCCN)NC(=O)c1cc2cc3ccccc3cc2nc1CC)C(=O)N1CCC[C@H]1C(=O)NCCCN)C(=O)N1CCC[C@H]1C(=O)NCCCN | (CAG)10 RNA | SPR | – | – | Kd | 298 nM |
| Cc1nn(-c2cccc(N)c2)c(=O)c2cnc(Nc3ccc(N4CCNCC4)cc3)nc12 | PRKX (Homo sapiens, UniProt P51817) | enzyme activity, inhibitor | – | – | IC50 | 1760 nM |
| CCc1nc2cc3ccccc3cc2cc1C(=O)N1CCC[C@H]1C(=O)N[C@@H](C/C=C\C[C@H](NC(=O)[C@@H]1CCCN1C(=O)c1cc2cc3ccccc3cc2nc1CC)C(=O)N[C@@H](CCCCN)C(=O)NCCCN)C(=O)N[C@@H](CCCCN)C(=O)NCCCN | (CAG)10 RNA | SPR | – | – | Kd | 46 nM |
| CCc1c(C(=O)Nc2ccc3c(c2)CN(C2CCC(=O)NC2=O)C3=O)[nH]c2c(CO)cccc12 (stereo not drawn) | CSNK1A1/CRBN | protein level, degrader, luciferase | – | – | DC50 | 15.6 nM |

Some of these lines once more:
| Structure (SMILES) | target | test | test system | setting | measurement | value |
| --- | --- | --- | --- | --- | --- | --- |
| CCOC(=O)Cc1n[nH]c2nc(N)[nH]c(=O)c2c1=O | folP (Bacteria, UniProt P0AC13) | binding, SPR | – | – | Kd | 32.1 nM |
